Measured values of several laboratories.
Several values in a cell are separate wells, animals, samples, runs or records. ± marks the error that the study gave.
Chain of UniProt Q08345 (whole entry, looked up): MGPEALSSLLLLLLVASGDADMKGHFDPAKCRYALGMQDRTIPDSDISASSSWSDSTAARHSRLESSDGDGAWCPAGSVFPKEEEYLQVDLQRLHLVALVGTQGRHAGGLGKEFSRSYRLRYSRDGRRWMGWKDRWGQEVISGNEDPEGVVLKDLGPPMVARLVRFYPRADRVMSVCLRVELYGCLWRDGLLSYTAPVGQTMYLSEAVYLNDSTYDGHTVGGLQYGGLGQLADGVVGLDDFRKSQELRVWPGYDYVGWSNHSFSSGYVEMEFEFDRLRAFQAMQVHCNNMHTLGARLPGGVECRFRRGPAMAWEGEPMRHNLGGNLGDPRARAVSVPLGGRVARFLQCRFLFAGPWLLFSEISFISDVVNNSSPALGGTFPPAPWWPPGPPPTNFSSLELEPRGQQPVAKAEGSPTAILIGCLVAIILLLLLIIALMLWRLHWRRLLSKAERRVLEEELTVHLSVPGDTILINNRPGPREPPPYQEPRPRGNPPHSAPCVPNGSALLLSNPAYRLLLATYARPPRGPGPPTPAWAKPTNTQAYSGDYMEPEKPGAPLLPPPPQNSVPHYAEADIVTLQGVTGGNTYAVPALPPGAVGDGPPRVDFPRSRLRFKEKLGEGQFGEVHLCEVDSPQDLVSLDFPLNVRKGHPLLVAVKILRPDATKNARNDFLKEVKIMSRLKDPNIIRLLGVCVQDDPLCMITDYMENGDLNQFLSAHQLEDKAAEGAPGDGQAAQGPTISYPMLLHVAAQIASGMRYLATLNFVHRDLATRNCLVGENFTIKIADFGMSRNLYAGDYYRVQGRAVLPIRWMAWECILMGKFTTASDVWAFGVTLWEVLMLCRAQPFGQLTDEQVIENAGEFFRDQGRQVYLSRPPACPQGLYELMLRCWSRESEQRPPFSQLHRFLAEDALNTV

SMILES | target or system | assay | system | conditions | how to read | measurement | result
Cn1cc(C(F)(F)F)nc1-c1ccc(OCC(O)CNCCOc2ccc(O)c(C(N)=O)c2)cc1 (stereo not shown) | Plasmodium falciparum |  | HB3 |  |  | IC50 | 7.94 µM
O=C/C=C/c1ccccc1 | LS174T | MTT |  | 3.1 to 50 µg/mL, 48 h, 10% FBS |  | viability | > 90%
Fc1ccc(C(OCCCc2c[nH]cn2)c2ccc(F)cc2)cc1 | Plasmodium falciparum |  | Dd2 |  |  | IC50 | 10 µM
O=C(Nc1cccc(OS(=O)(=O)c2ccc(Cl)cc2)c1)c1ccc2ncccc2c1 | MCF7 non-transfected | MTT |  | 100 µM, 24 h | reference: untreated | viability | 85.5 ± 1.13%
Cn1cc2cc(C(F)(F)c3nnc4ccc(-c5cnn(C6CC6)c5)nn34)c(F)cc2n1 | MKN-45 | CCK-8 |  | 0.0001 µM, 72 h | reference: untreated | viability | 99.5% and 99.8% and 99.6%
O=C(O)CNC(=O)[C@H](Cc1ccccc1)NC(=O)[C@@H](Cc1ccccc1)NC(=O)OCc1ccccc1 | Vero/SLAM cells | CCK-8 |  | 100 µM, 24 h, 1% DMSO |  | viability | 96.5 ± 0.7%
CO[C@H]1C[C@@H]2CC[C@@H](C)[C@@](O)(O2)C(=O)C(=O)N2CCCC[C@H]2C(=O)O[C@H]([C@H](C)C[C@@H]2CC[C@@H](OC(=O)NCCOCCOCCOCCOCCOCCOCCOCCOCCC(=O)N3CCc4cc(Cn5nc(-c6ccc7oc(N)nc7c6)c6c(N)ncnc65)ccc4C3)[C@H](OC)C2)C[C@@H](O)[C@H](C)/C=C(\C)[C@@H](O)[C@@H](OC)C(=O)[C@H](C)C[C@H](C)/C=C/C=C/C=C/1C |  | phase 1 dose escalation, refers to: vomiting | advanced solid tumour patients | intravenous, 6 mg weekly, any grade |  | TRAE incidence | 41.7%
Cc1ccc(NC(=O)c2cc3c(=O)n4cccc(C)c4nc3n2C)cc1Cl | Vero | MTT |  | 6.3 µM, 24 (unit not given) |  | viability | 66.6%
C[C@H]1CN(c2n[nH]c3nc(N[C@H]4CC[C@H](NS(=O)(=O)CCC(F)(F)F)CC4)ncc23)CCO1 | Epithelial discoidin domain-containing receptor 1 (DDR1, Homo sapiens, UniProt Q08345) | inhibitor, Kinobeads competition profiling |  | 0.8 µM | reference: vehicle | relative abundance | 1.02
CC(C)C[C@H](NC(=O)[C@H](C)NC(=O)[C@@H](NC(=O)[C@H](CCCNC(=N)N)NC(=O)[C@H](CC(C)C)NC(=O)[C@H](Cc1c[nH]c2ccccc12)NC(=O)[C@@H]1CCCN1C(=O)[C@@H](N)CCCCN)C(C)C)C(=O)N[C@@H](CS)C(=O)N1CCC[C@H]1C(=O)NCC(=O)O | H9c2 | WST-1 |  | 512 µM, 24 h |  | viability | 65.5% and 101% and 71.9%
COc1cc2c(Oc3ccc4[nH]c(C)cc4c3F)ccnc2cc1OCC1(N)CC1 |  |  | paediatric recurrent refractory sarcoma | 8 mg |  | Nausea incidence | 0%
Cc1cc(NC(=O)c2cc3c(=O)n4cccc(C)c4nc3n2C)ccc1Br | Vero | MTT |  | 6.3 µM, 24 (unit not given) |  | viability | 72.5%
O=S(=O)(Nc1ccc(-c2n[nH]c(=S)o2)cc1)c1ccc(C(F)(F)F)cc1 | MCF7 non-transfected | MTT |  | 100 µM, 24 h | reference: untreated | viability | 83.3 ± 1.12%
O=C(Nc1cccc(SSc2cccc(NC(=O)c3ccccc3)c2)c1)c1ccccc1 | Jurkat E6-1 | WST-8 |  | 10 µM, 24 h | reference: control | viability | 74.9%
Cc1cccn2c(=O)c3cc(C(=O)Nc4ccc(N(C)C)cc4)n(C)c3nc12 | Vero | MTT |  | 0.4 µM, 24 (unit not given) |  | viability | 97.5%
CC(=N)S | THLE-2 | MTT |  | 400 µM, 72 h, 2D monolayer culture |  | viability | 64.4%
